Published values collected from several papers.
A part holds a random share of what one study measured.

Study 1
Target: Sal-like protein 4, full length isoform A (SALL4, Homo sapiens, UniProt Q9UJQ4, residues 1-1053)
UniProt Q9UJQ4, sequence (whole entry, looked up): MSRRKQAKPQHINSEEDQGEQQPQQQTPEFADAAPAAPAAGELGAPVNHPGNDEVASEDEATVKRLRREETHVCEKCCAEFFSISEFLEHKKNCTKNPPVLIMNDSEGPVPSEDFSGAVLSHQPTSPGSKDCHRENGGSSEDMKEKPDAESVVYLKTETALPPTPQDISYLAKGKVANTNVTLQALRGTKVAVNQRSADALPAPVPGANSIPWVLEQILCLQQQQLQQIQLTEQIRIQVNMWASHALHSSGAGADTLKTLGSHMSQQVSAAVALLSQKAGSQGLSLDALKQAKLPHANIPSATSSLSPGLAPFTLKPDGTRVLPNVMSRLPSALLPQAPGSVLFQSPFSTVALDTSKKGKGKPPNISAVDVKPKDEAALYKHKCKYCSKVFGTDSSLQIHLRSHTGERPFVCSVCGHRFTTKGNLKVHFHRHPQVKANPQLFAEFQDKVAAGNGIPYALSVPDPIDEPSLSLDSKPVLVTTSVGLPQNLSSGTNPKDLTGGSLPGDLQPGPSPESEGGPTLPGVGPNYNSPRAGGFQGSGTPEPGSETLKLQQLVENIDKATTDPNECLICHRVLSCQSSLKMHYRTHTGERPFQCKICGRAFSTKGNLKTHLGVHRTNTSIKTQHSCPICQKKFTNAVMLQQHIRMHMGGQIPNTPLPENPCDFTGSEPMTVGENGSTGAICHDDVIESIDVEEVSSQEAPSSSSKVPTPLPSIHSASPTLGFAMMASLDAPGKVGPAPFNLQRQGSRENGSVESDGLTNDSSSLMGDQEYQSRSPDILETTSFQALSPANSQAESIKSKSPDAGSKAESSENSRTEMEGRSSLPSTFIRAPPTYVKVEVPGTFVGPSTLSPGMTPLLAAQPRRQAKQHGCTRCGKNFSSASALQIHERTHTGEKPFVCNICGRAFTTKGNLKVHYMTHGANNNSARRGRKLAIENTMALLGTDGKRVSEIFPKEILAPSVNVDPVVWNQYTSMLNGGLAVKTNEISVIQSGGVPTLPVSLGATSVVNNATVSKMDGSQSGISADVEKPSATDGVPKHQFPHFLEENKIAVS
Technique: universal PBM
Molecule type: double-stranded DNA, one strand shown
Sample: in vitro
Concentration: 600 nM
Setting: 8-mer, flanks averaged, mean of replicates
Reading: higher = stronger binding
Strand | E-score
AACGCCAA | 0.114
AAGCCTGT | 0.00866
TACGCAAA | 0.09
AGTGTTTA | 0.226
CTAGGCCA | -0.199
CACCGGGC | -0.354
ATTTACGG | 0.19
CATCCCCG | -0.286
TGACTCCA | -0.0724
ACAACCAC | -0.0127
AATTATGC | 0.361
ATGTATGC | 0.241
GCTAGGCC | -0.28
CGGGGGCC | -0.384
AGAGGATA | 0.141
CTGTTCGA | -0.0433

Study 2
Target: Prothrombin, mature alpha-thrombin (F2, Homo sapiens, UniProt P00734)
Technique: aptamer microarray, sandwich
Molecule type: DNA with 2'F-ANA
Sample: in vitro
Concentration: 200 nM
Setting: whole 15-mer aptamer, many near background
Added: Cy3 exosite-II aptamer, 400 nM
Reading: higher = stronger binding
Strand: GGTTGGTGTGGTTGG
Modification | mean fluorescence intensity
2'F-ANA at 3 4 6 7 11 | 538 a.u.
2'F-ANA at 1 2 3 4 8 11 12 13 14 | 76.3 a.u.
2'F-ANA at 1 2 5 6 7 8 11 12 | 90.3 a.u.
2'F-ANA at 1 4 5 7 8 9 10 13 | 47.2 a.u.
2'F-ANA at 1 6 7 9 10 13 14 | 51.1 a.u.
2'F-ANA at 1 8 9 10 11 12 13 14 | 53.3 a.u.
2'F-ANA at 3 4 6 7 8 9 11 12 | 822 a.u.
2'F-ANA at 1 2 3 7 8 9 10 12 14 15 | 62.4 a.u.
2'F-ANA at 3 4 6 7 11 12 13 14 | 295 a.u.
2'F-ANA at 2 3 5 6 8 13 | 76.7 a.u.
2'F-ANA at 1 2 3 5 6 8 9 14 | 49.2 a.u.
2'F-ANA at 1 2 5 6 7 13 14 15 | 49.1 a.u.
2'F-ANA at 1 2 6 9 11 | 116 a.u.
2'F-ANA at 1 2 4 6 8 9 10 14 | 42.4 a.u.
2'F-ANA at 1 4 5 7 9 10 11 | 46.2 a.u.
2'F-ANA at 1 2 4 5 7 10 11 12 14 | 48.1 a.u.
2'F-ANA at 5 6 8 9 10 14 | 43.4 a.u.
2'F-ANA at 1 5 6 11 12 13 | 82.6 a.u.
2'F-ANA at 1 2 3 5 6 10 11 14 | 62.6 a.u.

Study 3
Target: PABPC1L2, full length, GST fusion (mouse, UniProt A0ABA7IW68)
Technique: RNAcompete
Molecule type: RNA
Sample: in vitro
Concentration: 20 nM
Setting: 7-mer, probes averaged, single round
Baseline: mean of 7-mers
Reading: higher = stronger binding
Strand | 7-mer Z-score
AGAGAUC | -0.173
GAAGUCU | -0.275
CACACAU | -0.121
GUAAUAC | -0.144
CCCGGAG | -0.0518
CCUGAUA | -0.0899
UCGCCCC | -0.394
UAGCGGG | 0.0424
UCUGAUG | -0.171
UACAGAC | -0.155
CGGGAGG | 0.0841
GGGUUUA | -0.112
AGGCUCA | 0.0877
GGCAAGC | -0.0301
CGCUAGC | -0.266
CAACAAA | 1.86
CUAGUAA | -0.021
UUAUCUA | -0.166
UACUCUG | -0.325
AUCAUCG | -0.211
GCCCGCU | -0.249
GUCCUAC | -0.351
GAAGGGA | 0.356
ACGAUUC | -0.155
CUAGCCA | -0.206

Study 4
Target: RNA binding protein fox-1 homolog 2, RRM domain, GST-SBP tag (RBFOX2, Homo sapiens, UniProt O43251-10, residues 100-194)
Technique: RNA Bind-n-Seq
Molecule type: RNA
Sample: in vitro
Concentration: 365 nM
Setting: natural RNA segment, single round, ends assumed
Baseline: no-protein control
Reading: higher = stronger binding
Residues (chain): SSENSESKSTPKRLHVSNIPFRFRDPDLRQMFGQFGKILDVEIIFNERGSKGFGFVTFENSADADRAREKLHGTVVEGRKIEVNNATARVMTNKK
Strand | RBNS enrichment (R)
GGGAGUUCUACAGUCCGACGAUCUUUUCCUACAUCAUUUAGAAUUUUAUUUCCCUGAUUCAGUUUUUGCUGCUGUGAAACAGCUCUGAUGAACACUAAAUAUUAAUUUCAAUUAGCUAGAUUGUACAUACUUGUGGAAUUCUCGGGUGCCAA | 0.258
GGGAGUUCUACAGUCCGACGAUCGUACCACAGGAUACAUAUAGGUAGAAUAUAAUCUCGAUAGACACUGACUAUUGAUAUACGCCCCCAAACUUAAGGUGUUCAUGUUAGAUUUUAAUUAGCUGUGAGAUUUAUGGAAUUCUCGGGUGCCAA | 0.649
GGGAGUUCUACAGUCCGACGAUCUUCACAUAUUUUCGACUUGAGAAAUGCUUGUGGUAUGUGUUUUCCAAACUGCCCCCUAUAUGUAAAGUUCAGUUUAACCACUGAUUGCCUUGUUAUUACUAGGUUUUUUGUGGAAUUCUCGGGUGCCAA | 1.62
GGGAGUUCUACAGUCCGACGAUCGCCUCACCGUCUGCCUUGCUCCUCUCUUCCCAAAUCAUCACCGCCAUGGGCCCAGCCCCAAAGGGCAGUGAAUGGCCUUCUCUGAAACCCUGCGUCAAGCAGUGGGAGAGUGGAAUUCUCGGGUGCCAA | 0.376
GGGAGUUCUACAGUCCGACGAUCUAGGAGAGAAUAAAGGGCUAUAUAAUAAUAAAUCCAGAUUUCCGGAUAAGAAUAUUGCCUGGUUAAAAUUCUGCAUUGCUUAAAGACACCCAUGUUUAAGAUUUUUCAUCUGGAAUUCUCGGGUGCCAA | 1.45
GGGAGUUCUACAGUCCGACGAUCAUUGGGCUUAAAUCAGUGUAACCUGAUUCAUCCUGGGAUGUAAACCAUUUGAAGUCAGCUAAUUUGACUUUUAUGGCUCUGUCUUUUUCUUUCAUGAAGAACCCUGUUUAUGGAAUUCUCGGGUGCCAA | 0.272
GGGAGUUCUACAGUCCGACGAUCCCCAAAGAAGCAAGCCUUAGAACCGAGCAGGUGAAUCUUAGAGAGUCAGCCAAGGACAGUGCAGAGUCACGGGUUGGGAGGUAUGUGGGCUAGGGUAUGUGGUUUCCUCAUGGAAUUCUCGGGUGCCAA | 1.19
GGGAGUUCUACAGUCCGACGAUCCACUGCACAGCAAUUCACGGCCAGUGAAUGUUACACACAUCUUGCUAGACUAGUAUAAAAAUCAUUGGGUAAUUGUUGGUUCUAAUGACCUGAAAGGUGUUCAGUUUGUGUGGAAUUCUCGGGUGCCAA | 0.313
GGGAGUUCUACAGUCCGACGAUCAAAAUGUAAAACACAUACAAAAGAAUUAAACCCACAAGCUGCCUCUGACAGCAGCCUGUGAGGGAGUGCAGAACACCUGGCCGGGUCACCCUGUGACCCUCUCACUUUGGUGGAAUUCUCGGGUGCCAA | 0.261
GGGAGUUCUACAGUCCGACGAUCCCGUACCUACUAAUAUGCCUUAUUCUUCUUCACCUAGUGUUUUAAAAGUCCUGGGUAGAAAGAGUUUUAGAAAUGUAAUCAGUUGUUCAGCUUCAAUAAUAUAGAGAUCUUGGAAUUCUCGGGUGCCAA | 0.417
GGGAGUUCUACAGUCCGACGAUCGCUGGGCUUUGGACAGAAAAGAGAAGGGGCUGGAGCAGACAGAGCACAGGACCUGUCCCUGUGAGCGCCUCGGUGGUGCCAAGCCUGCAGGGAGUGGGAGCCGGGUGGACUGGAAUUCUCGGGUGCCAA | 0.883
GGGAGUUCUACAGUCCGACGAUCAGGACGUGGUGAUGUGAGGUGUGCCCACCUGGUGGCCCUUGCCAUGCAGUGUGAGGGCCCAAAGCUUAUCCUCAAAUAGUCCUGUUUGCCAGGCUCAGUUCCCACCCACAUGGAAUUCUCGGGUGCCAA | 0.942

Study 5
Target: Histone acetyltransferase KAT6A, winged helix 1, GST fusion (KAT6A, Homo sapiens, UniProt Q92794, residues 1-85)
Technique: protein binding microarray
Molecule type: double-stranded DNA, one strand shown
Sample: in vitro
Concentration: not given
Setting: 8-mer, flanks averaged, mean of 2 arrays, mostly near background
Baseline: not given
Reading: higher = stronger binding
Construct (chain): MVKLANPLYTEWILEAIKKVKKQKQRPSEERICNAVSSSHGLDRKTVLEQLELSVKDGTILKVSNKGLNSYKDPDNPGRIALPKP
Strand | E-score
GAGTGGGC | -0.0818
ACTTAAGG | -0.159
GATCGTTA | 0.0504
ACTTACAC | -0.109
ATTAGTGG | -0.175
AAAGCGTA | 0.235
AACCGTTC | 0.0965
AATACTCA | -0.115
AAGCCAGT | -0.324
TAGCATAA | -0.0909
AACCATAA | -0.0464
CAGGGAGA | -0.187
AACACAAG | -0.195
AGTCGGTA | -0.0499
ACTGAAAT | -0.172
CAGAATGA | -0.0901
AGGCCACA | -0.126
CTTAGTAA | 0.00455
AATACCTC | -0.0501

Study 6
Target: Protein C-ets-1 (ETS1, Homo sapiens, UniProt P14921, residues 1-441, Y397A, full length assumed)
Technique: protein-binding microarray
Molecule type: double-stranded DNA, one strand shown
Sample: in vitro
Concentration: not given
Setting: k-mer, scored over probes, only values ≥0.25
Reading: higher = stronger binding
Residues (chain): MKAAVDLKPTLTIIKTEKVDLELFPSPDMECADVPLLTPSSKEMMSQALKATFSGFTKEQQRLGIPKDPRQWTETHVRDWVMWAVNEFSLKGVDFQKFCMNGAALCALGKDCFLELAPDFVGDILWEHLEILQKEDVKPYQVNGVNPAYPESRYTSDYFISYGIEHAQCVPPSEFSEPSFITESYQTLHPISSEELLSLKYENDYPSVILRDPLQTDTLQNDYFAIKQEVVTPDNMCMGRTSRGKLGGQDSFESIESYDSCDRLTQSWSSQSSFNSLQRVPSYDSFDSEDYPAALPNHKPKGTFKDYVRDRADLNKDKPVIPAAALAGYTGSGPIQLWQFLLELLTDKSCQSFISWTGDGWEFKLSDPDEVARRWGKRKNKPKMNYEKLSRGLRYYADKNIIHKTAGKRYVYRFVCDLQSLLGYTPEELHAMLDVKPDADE
Strand | E-score
CTGCCAAA | 0.33
GAACGACA | 0.29
GCATGTCA | 0.282
AGCAAACG | 0.32
ACAACAGC | 0.258
GCGGCAAA | 0.325
TCCGACAA | 0.426
ACAACATA | 0.284
GCAAACAC | 0.252
ACAAAGCA | 0.288
GGTAACAA | 0.27
CAAACGAC | 0.26
GTGTCATA | 0.314
ACGGGGCG | 0.262
ACAGACAA | 0.256
ACTTCCTA | 0.31
ATCGACAA | 0.336
ACATACAC | 0.271
GTTTCCGA | 0.327
ATCGTACA | 0.263

Excerpt of the above (study 2):
Modification | mean fluorescence intensity
2'F-ANA at 1 2 5 6 7 13 14 15 | 49.1 a.u.
2'F-ANA at 1 2 4 6 8 9 10 14 | 42.4 a.u.
2'F-ANA at 1 2 3 5 6 8 9 14 | 49.2 a.u.
2'F-ANA at 1 5 6 11 12 13 | 82.6 a.u.
2'F-ANA at 1 2 5 6 7 8 11 12 | 90.3 a.u.
2'F-ANA at 1 2 3 4 8 11 12 13 14 | 76.3 a.u.
2'F-ANA at 1 4 5 7 8 9 10 13 | 47.2 a.u.
